Experimental data from different studies.
± gives the spread as reported.
HTR2C: 5-hydroxytryptamine receptor 2C (HTR2C, Homo sapiens, UniProt P28335)
Sequence of UniProt P28335 (whole entry, looked up): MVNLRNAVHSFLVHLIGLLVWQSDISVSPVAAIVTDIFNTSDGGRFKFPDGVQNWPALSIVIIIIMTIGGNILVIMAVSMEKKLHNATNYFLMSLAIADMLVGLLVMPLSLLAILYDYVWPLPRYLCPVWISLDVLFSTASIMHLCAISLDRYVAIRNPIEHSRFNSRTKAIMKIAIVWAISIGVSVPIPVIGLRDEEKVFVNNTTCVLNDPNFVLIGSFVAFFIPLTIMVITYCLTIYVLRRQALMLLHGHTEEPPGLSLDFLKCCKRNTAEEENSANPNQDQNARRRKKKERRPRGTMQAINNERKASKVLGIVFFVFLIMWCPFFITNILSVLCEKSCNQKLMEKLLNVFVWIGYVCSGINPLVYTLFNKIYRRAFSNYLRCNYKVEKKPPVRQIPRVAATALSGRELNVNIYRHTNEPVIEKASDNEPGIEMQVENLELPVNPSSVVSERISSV
Vesicular acetylcholine transporter: Vesicular acetylcholine transporter (Rattus norvegicus, UniProt Q62666)
Sequence of UniProt Q62666 (whole entry, looked up): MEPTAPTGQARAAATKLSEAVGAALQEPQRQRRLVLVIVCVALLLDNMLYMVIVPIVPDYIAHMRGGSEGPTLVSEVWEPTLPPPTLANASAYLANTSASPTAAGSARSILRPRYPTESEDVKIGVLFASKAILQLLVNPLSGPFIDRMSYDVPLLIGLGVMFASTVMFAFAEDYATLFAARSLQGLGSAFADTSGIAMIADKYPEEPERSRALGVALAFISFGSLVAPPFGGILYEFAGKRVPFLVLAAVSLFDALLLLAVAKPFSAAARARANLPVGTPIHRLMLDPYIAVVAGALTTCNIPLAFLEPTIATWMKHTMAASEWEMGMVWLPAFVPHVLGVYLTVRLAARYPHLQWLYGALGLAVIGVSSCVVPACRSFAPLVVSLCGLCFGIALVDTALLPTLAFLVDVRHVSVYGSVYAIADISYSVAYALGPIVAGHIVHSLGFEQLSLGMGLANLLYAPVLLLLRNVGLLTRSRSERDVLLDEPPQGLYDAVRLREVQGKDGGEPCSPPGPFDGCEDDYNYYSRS
Sequence of UniProt Q13547 (whole entry, looked up): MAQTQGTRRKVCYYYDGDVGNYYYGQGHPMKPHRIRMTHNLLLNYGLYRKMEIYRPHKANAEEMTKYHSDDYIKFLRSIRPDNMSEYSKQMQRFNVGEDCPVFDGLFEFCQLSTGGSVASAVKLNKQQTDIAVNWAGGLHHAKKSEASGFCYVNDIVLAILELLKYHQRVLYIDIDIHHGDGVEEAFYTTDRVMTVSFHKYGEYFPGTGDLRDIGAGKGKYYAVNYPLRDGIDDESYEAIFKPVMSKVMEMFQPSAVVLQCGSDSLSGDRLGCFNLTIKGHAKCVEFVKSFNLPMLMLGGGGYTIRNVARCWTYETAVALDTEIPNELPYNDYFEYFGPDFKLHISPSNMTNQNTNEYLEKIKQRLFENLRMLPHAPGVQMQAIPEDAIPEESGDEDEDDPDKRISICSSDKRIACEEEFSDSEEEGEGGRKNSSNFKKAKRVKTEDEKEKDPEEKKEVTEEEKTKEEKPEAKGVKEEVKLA
Sequence of UniProt P16257 (whole entry, looked up): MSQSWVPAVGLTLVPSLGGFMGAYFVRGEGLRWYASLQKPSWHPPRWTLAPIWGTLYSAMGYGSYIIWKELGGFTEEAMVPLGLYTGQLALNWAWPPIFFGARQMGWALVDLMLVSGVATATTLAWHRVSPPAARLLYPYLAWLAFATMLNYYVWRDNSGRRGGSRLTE
Sequence of UniProt Q5BJF2 (whole entry, looked up): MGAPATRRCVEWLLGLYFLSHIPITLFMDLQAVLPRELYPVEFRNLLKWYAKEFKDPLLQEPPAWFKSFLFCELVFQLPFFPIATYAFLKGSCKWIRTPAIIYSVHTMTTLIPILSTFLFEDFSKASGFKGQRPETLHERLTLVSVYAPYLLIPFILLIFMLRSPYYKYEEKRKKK
Sequence of UniProt O60930 (whole entry, looked up): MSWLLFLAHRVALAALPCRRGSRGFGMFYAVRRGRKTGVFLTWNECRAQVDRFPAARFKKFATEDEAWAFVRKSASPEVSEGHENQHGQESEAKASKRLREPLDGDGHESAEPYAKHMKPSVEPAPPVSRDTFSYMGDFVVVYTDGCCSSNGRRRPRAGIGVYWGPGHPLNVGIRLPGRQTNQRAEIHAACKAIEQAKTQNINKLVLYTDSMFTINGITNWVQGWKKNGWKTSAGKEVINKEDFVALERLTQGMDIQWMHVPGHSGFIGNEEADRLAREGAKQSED

With `Cn1ccc2c(N3CCN(CCCCOc4ccc5c(c4)NC(=O)CC5)CC3)cccc21` the Ki was 200 nM (HTR2C; ligand displacement, radioligand).
For `Nc1ncnc2c1c(-c1ccc(Oc3ccccc3)cc1)nn2C1CCCC1`, the Ki was under 20 nM (Proto-oncogene tyrosine-protein kinase Src (SRC, Gallus gallus, UniProt P00523, G530I/P529E/Q528E); enzyme activity, inhibitor, radiometric).
For `Cc1ccc(C2CCN(C3Cc4ccccc4CC3O)CC2)cc1` (racemic), the Ki was 5.3 ± 0.3 nM (Vesicular acetylcholine transporter; radioligand binding; PC12 expressing VAChT; together with: [3H]vesamicol).
For `CCCCN1CCC(COC(=O)c2ccc(N)c(OCF)c2)CC1` [fluorine-18 labelled], the Ki was 43 nM (Sigma intracellular receptor 2 (TMEM97, Homo sapiens, UniProt Q5BJF2); NIMH-PDSP radioligand binding).
`CC(=O)N[C@@H](CC(C)C)C(=O)N[C@@H](CCCNC(=N)N)C(=O)N[C@H](C(=O)N[C@@H](CCCCN)C(=O)N[C@@H](CCCNC(=N)N)C(N)=O)C(C)C` gave a Ki of 860 ± 900 nM (proprotein convertase 1/3 (human); inhibitor).
For `CNC(=O)C12CC1C(n1cnc3c(NC)nc(C#Cc4ccccc4Cl)nc31)C(O)C2O` (stereo not drawn), the Ki was 480 nM (Translocator protein (Tspo, Rattus norvegicus, UniProt P16257); binding; PDSP off-target screen).
`Cc1cc(O)c(=O)c(O)cc1C(=O)N1CCN(C(=O)c2cccc3ccccc23)CC1` gave a Ki of 27100 nM (Ribonuclease H1 (Homo sapiens, UniProt O60930); enzyme activity, inhibitor, FRET cleavage; catalytic domain, enzyme binding).
The Ki of `CC(=O)N[C@@H](CC(C)C)C(=O)N[C@@H](CC(C)C)C(=O)N[C@@H](CC(C)C)C(=O)N[C@@H](CC(C)C)C(=O)N[C@@H](CC(C)C)C(=O)N[C@@H](CCCNC(=N)N)C(=O)N[C@H](C(=O)N[C@@H](CCCCN)C(=O)N[C@@H](CCCNC(=N)N)C(N)=O)C(C)C` is reported as 370 ± 80 nM (proprotein convertase 1/3 (human); inhibitor).
With `CCc1c(Cl)cccc1N1CCN(C[C@@H](F)CCNC(=O)c2cc3ccccc3[nH]2)CC1` the Ki was 1210 nM (HTR2C; ligand displacement, radioligand; cell membranes).
The Ki of `OC1CCCCC1N1CCC(c2ccc(Br)cc2)CC1` (racemic) is reported as 270 ± 20 nM (Vesicular acetylcholine transporter; radioligand binding; PC12 expressing VAChT; together with: [3H]vesamicol).
For `CC(=O)N[C@@H](CCCNC(=N)N)C(=O)N[C@H](C(=O)N[C@@H](CCCCN)C(=O)N[C@@H](CCCNC(=N)N)C(N)=O)C(C)C`, the Ki was 10000 ± 800 nM (proprotein convertase 1/3 (human); inhibitor).
`O=C(NO)c1cncc(OS(=O)(=O)Oc2ccc(Oc3ccccc3)cc2)c1` gave a Ki of 1330 nM (Histone deacetylase 1 (HDAC1, Homo sapiens, UniProt Q13547); enzyme activity, inhibitor, fluorescence).
